Published values of several laboratories.
Numbered parts are unrelated; each lists some results of a single study. Positions count from the first letter of the parent shown.

Set 1
Target: Sox, HMG box (Pigoraptor chileana)
Method: Spec-seq
Molecule type: double-stranded DNA, one strand shown
Sample: in vitro
Tested at: not given
Notes: whole probe, mean of replicates
Relative to: not given
Direction: lower = stronger binding
Shared flanks, not repeated: GAGTCGTCTCGTCAGCAC … CCGTAGAGCACTCAGGTC
Residues (chain): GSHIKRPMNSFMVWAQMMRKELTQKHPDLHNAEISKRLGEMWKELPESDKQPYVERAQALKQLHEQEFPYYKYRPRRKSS
Under “relative binding energy”, `CATAGCG` is recorded as -0.262 ln ratio.
For `GTGAGTT`, “relative binding energy” read 1.1 ln ratio.
`TCGTGTT` — result for “relative binding energy”: 0.0649 ln ratio.
For `TACAGTT`, “relative binding energy” read -0.458 ln ratio.
`ATAGGTT`: “relative binding energy” 0.125 ln ratio.
Under “relative binding energy”, `CATCGTA` is recorded as 0.457 ln ratio.
`CCCAGTT`: “relative binding energy” 0.165 ln ratio.
`GCATGTT` — result for “relative binding energy”: 0.0112 ln ratio.

Set 2
Target: CCNA2, cyclin fold, Cln2 fusion (human)
Method: yeast growth competition, sequencing
Sample: yeast
Notes: strong parent motif
Relative to: not given
Direction: higher = stronger binding
Starting sequence: viral docking peptide; TSVRRALFTGGSD
`TSVRNALFTGGSD [R5N]` — result for “normalised enrichment score”: 0.281.
`TSRRRALFTGGSD [V3R]`: “normalised enrichment score” 1.92.
`TSMRRALFTGGSD [V3M]` — result for “normalised enrichment score”: 1.87.
`TSVRRALFWGGSD [T9W]`: “normalised enrichment score” 5.69.
For `TSVRRALHTGGSD [F8H]`, “normalised enrichment score” read 0.63.
For `TSVSRALFTGGSD [R4S]`, “normalised enrichment score” read 4.14.
`TSVRRALMTGGSD [F8M]` — result for “normalised enrichment score”: 0.57.
`TSVRRAHFTGGSD [L7H]`: “normalised enrichment score” 0.109.
`TSVRYALFTGGSD [R5Y]` — result for “normalised enrichment score”: 0.406.
For `TSVRAALFTGGSD [R5A]`, “normalised enrichment score” read 0.731.
`TSVRTALFTGGSD [R5T]`: “normalised enrichment score” 0.767.
`TSVVRALFTGGSD [R4V]` — result for “normalised enrichment score”: 3.81.
For `TSVRRALFTGFSD [G11F]`, “normalised enrichment score” read 6.01.
`TSVRRALFTGGKD [S12K]` — result for “normalised enrichment score”: 5.78.
`TSVRRAYFTGGSD [L7Y]` — result for “normalised enrichment score”: 0.63.
`TSVRRQLFTGGSD [A6Q]`: “normalised enrichment score” 6.41.
`TSQRRALFTGGSD [V3Q]` — result for “normalised enrichment score”: 0.36.
`TSVRRAVFTGGSD [L7V]` — result for “normalised enrichment score”: 0.29.
Under “normalised enrichment score”, `TSVRRALFTGGGD [S12G]` is recorded as 6.14.
`TSVRRAKFTGGSD [L7K]` — result for “normalised enrichment score”: 0.683.
Under “normalised enrichment score”, `TSVRRARFTGGSD [L7R]` is recorded as 0.458.
`TSVRRALFTGPSD [G11P]`: “normalised enrichment score” 6.56.
`TSVRRACFTGGSD [L7C]` — result for “normalised enrichment score”: 0.75.

Set 3
Target: RNA binding protein fox-1 homolog 2, RRM domain, GST-SBP tag (RBFOX2, Homo sapiens, UniProt O43251-10, residues 100-194)
Method: RNA Bind-n-Seq
Molecule type: RNA
Sample: in vitro
Tested at: 365 nM
Notes: natural RNA segment, single round, ends assumed
Relative to: no-protein control
Direction: higher = stronger binding
Target sequence (chain): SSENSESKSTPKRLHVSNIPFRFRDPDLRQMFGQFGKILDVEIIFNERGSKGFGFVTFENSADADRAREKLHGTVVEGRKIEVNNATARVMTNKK
`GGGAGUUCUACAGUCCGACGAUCUAUUUAAAAUGAAAUUUAAUGAGCACUUAGUGACUUCAUUUGUUCAAGAAUAUUUGAUUUCCUAUUGUGUGCAUGGGAGGUUUACAAAAGACAGACUGUCCCUAUGCUUGUGGAAUUCUCGGGUGCCAA`: “RBNS enrichment (R)” 0.669.
`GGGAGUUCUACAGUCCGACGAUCUUGAUGUUUCUCUUCUCAACCCAGCAAUGGAGAGCAGGGCUUGCAAAGCCGUACAGAGCCUACGUGCUCUUUCCUGCAAGUGGGAGAAAACUAAUCAAUGGCACACAGGGUGGAAUUCUCGGGUGCCAA` — result for “RBNS enrichment (R)”: 0.401.
Under “RBNS enrichment (R)”, `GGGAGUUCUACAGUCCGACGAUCGAAAAAACUUAAAUAUUUAUUUCUAUGCUUUGUUGCCUCUGAGAAUAAUGACAAUUUAUGAAUUUGUGUUUCAAAUUGAUAAAAUAUUUAGGUACAAAUAACAAGACUAAUGGAAUUCUCGGGUGCCAA` is recorded as 0.454.
Under “RBNS enrichment (R)”, `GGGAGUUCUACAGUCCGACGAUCUCACCAUUCUUACAGCCAAGUGGUUGCUGGUCCCCUCAUAACUUUUAGUUACUUAAGUUGAGUAAAUGUCUAAUUGUUUACAAACUAAAUUGACUAAAUAAGGUCAAGGAUGGAAUUCUCGGGUGCCAA` is recorded as 0.261.
`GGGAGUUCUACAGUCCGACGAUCCAUCUCCCUAGCUUUCUCACGCUAACCCUGAAGUAUGAUCACUUCUGAACCUGCUCCUUUCUUAACUGCCAGGAUUGGAAGCAAGAGCAUCAAGCCCAUAGGAUGACUGCUGGAAUUCUCGGGUGCCAA`: “RBNS enrichment (R)” 0.415.
Under “RBNS enrichment (R)”, `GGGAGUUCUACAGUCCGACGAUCUGCCUUCAGAUGCUCCUGGUGGUCAGCUCAACUAGCAAGACCCUAGUCCCCUGUUCCAAAGCCAUCUCAUAUGUUAGUUCUCUGUCCCAUGAAGAGGGCCGUGGUGAGUUUGGAAUUCUCGGGUGCCAA` is recorded as 0.27.
For `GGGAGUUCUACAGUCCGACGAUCUAUUGAUCACAUUUUGAUUUUUUUCUCUCCACAUCAGGAUAGUUUACUGAAGCACAAUCUCUUAUACUAGUGGGACAAAAGGGAGAAAAAGGAAGCAAGAUAAAUGGGUAUGGAAUUCUCGGGUGCCAA`, “RBNS enrichment (R)” read 0.404.
`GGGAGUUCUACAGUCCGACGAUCAGCUUGAGUUCUGUGCUCAGCCUCUGCAGGGGAUGUCAAACUCAGUAUGGGGUUUGUGCUAUGUGGAUGGAUAUGUAAGGAACUCCAGUUCCAGCUACAACUAAAUACAAUGGAAUUCUCGGGUGCCAA` — result for “RBNS enrichment (R)”: 0.743.

Set 4
Target: ABI1, truncated, D143A, DHFR fusion (Arabidopsis thaliana)
Method: DHFR PCA, deep sequencing
Sample: yeast
Notes: methotrexate growth selection, single substitutions
Added: (+)-ABA 0.11 µM
Relative to: wild-type fitted maximum
Direction: higher = stronger binding
Starting sequence: PYL1, truncated, DHFR fusion (Arabidopsis thaliana); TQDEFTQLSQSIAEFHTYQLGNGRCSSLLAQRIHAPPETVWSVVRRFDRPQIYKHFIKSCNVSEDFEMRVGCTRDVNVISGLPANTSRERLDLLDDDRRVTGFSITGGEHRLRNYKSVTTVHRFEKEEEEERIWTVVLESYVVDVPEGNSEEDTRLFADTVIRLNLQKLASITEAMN; partner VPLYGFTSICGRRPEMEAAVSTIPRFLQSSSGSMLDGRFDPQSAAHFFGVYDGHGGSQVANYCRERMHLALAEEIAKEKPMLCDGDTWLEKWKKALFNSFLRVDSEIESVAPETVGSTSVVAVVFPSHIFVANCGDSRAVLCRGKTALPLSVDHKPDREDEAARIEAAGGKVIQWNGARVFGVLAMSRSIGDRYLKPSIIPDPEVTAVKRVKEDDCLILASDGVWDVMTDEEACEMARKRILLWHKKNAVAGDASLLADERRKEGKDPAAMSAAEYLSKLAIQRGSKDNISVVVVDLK
For `H55I`, “relative binding score” read 39%.
Under “relative binding score”, `R113A` is recorded as 13.5%.
`R111K`: “relative binding score” 11.6%.
Under “relative binding score”, `L20M` is recorded as 29.7%.
For `E151I`, “relative binding score” read 32.9%.
`E64N` — result for “relative binding score”: 29.2%.
`P37I` — result for “relative binding score”: -0.407%.
For `S80Q`, “relative binding score” read 1.42%.

Set 5
Target: UDP-N-acetylglucosamine--peptide N-acetylglucosaminyltransferase 110 kDa subunit (OGT, Homo sapiens, UniProt O15294)
Effect on: binding
Method: phage display NGS
Molecule type: peptide
Notes: panning round 2
Relative to: input library
Target sequence (O15294 1-1046): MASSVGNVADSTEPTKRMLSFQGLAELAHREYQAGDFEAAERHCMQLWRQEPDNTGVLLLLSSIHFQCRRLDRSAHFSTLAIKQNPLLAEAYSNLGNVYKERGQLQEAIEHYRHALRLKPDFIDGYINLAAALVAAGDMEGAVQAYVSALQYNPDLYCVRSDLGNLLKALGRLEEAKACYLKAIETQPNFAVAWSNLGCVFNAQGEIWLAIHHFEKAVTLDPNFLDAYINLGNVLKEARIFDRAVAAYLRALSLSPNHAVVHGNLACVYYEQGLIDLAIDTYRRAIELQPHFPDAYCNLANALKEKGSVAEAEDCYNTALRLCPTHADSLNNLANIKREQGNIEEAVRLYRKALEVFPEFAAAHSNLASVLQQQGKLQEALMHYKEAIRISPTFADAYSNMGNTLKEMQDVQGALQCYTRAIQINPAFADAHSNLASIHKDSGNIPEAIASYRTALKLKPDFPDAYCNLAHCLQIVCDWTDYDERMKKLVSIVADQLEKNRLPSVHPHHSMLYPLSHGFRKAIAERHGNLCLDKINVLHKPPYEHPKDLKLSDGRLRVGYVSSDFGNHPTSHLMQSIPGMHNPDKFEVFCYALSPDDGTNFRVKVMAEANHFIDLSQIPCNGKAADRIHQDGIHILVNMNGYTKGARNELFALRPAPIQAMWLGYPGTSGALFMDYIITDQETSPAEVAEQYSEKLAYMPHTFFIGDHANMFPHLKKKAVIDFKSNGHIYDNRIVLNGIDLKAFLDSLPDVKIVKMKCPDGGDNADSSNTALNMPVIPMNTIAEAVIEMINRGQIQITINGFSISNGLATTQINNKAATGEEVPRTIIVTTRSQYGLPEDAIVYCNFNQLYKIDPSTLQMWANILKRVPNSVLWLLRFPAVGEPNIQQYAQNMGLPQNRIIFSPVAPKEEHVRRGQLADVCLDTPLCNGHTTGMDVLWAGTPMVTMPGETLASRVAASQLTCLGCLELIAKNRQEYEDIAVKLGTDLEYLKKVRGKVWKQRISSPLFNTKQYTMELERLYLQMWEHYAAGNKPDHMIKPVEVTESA
`QQDIYPPHYLIELDI`: “minimum log2 enrichment ratio” 2.59.
Under “minimum log2 enrichment ratio”, `SFLKYQPKYPIVYNV` is recorded as 3.85.
For `HWFHHTEGWLPQHSR`, “minimum log2 enrichment ratio” read 2.02.

Repeated from above (set 2):
For `TSVRRALHTGGSD [F8H]`, “normalised enrichment score” read 0.63.
`TSVRRAKFTGGSD [L7K]` — result for “normalised enrichment score”: 0.683.
`TSVRRALFTGPSD [G11P]`: “normalised enrichment score” 6.56.
